# Assay results from different studies.
# Numbers after ± are the reported error.
# gag-pol I1092V reverse transcriptase I505V: Gag-Pol polyprotein, reverse transcriptase I505V (gag-pol, Human immunodeficiency virus type 1 group M subtype B, UniProt P04585, I1092V)
# Spike glycoprotein: Spike glycoprotein (Severe acute respiratory syndrome coronavirus 2, UniProt P0DTC2)
# gag-pol integrase: Gag-Pol polyprotein, integrase (gag-pol, Human immunodeficiency virus type 1 group M subtype B, UniProt P04585)
# gag-pol D654N/K657R/K806Q/T802F reverse transcriptase: Gag-Pol polyprotein, reverse transcriptase (gag-pol, Human immunodeficiency virus type 1 group M subtype B, UniProt P04585, D654N/K657R/K806Q/T802F)
# gag-pol K652R reverse transcriptase: Gag-Pol polyprotein, reverse transcriptase (gag-pol, Human immunodeficiency virus type 1 group M subtype B, UniProt P04585, K652R)
Compound,tested on,test,system,conditions,scale,endpoint,result
COc1ccc2ccccc2c1/C=N/NC(=O)c1ccc(O)c(O)c1,gag-pol I1092V reverse transcriptase I505V,"RNase H activity, inhibitor",HIV-1,,,IC50,0.9 ± 0.1 µM
COc1ccc(C(=O)Nc2sc3c(c2C(=O)Nc2ccccn2)CCCCC3)cc1OC,"Gag-Pol polyprotein, reverse transcriptase p51 C280A (gag-pol, Human immunodeficiency virus type 1 group M subtype B, UniProt P04585, C867A)",,,,,IC50,> 50 µM
CC[C@H](C)[C@H]1O[C@]2(CC[C@@H]1C)C[C@@H]1C[C@@H](C/C=C(\C)[C@@H](O[C@H]3C[C@H](OC)[C@@H](O[C@H]4C[C@H](OC)[C@@H](O)[C@H](C)O4)[C@H](C)O3)[C@@H](C)/C=C/C=C3\CO[C@@H]4[C@H](O)C(C)=C[C@@H](C(=O)O1)[C@]34O)O2,Spike glycoprotein,binding,,,,Kd,30.5 µM
Oc1ccc(C2CNCc3sccc32)cc1O (stereo not drawn),gag-pol integrase,"enzyme activity, inhibitor",,,,IC50,> 25 µM
O=P(O)(O)C(O)(Cc1cnc2ccccn12)P(=O)(O)O,gag-pol D654N/K657R/K806Q/T802F reverse transcriptase,"inhibitor, biochemical",,,,IC50,≥ 100 µM
Cc1cn([C@H]2C[C@H](N=[N+]=[N-])[C@@H](CO[P@](=O)(O)O[P@](=O)(O)OP(=O)(O)O)O2)c(=O)[nH]c1=O,gag-pol K652R reverse transcriptase,inhibitor,HIV-1,,,IC50,0.4539 ± 0.00144 µM
CO[C@H]1/C=C/O[C@@]2(C)Oc3c(C)c(O)c4c(O)c(c(/C=N/N5CCN(C)CC5)c(O)c4c3C2=O)NC(=O)/C(C)=C\C=C\[C@H](C)[C@H](O)[C@@H](C)[C@@H](O)[C@@H](C)[C@H](OC(C)=O)[C@@H]1C,Spike glycoprotein,"binding, biolayer interferometry",,,,Kd,117 µM
O=P(O)(O)C(Nc1cccc(-c2cc(F)cc(F)c2)c1)P(=O)(O)O,gag-pol D654N/K657R/K806Q/T802F reverse transcriptase,,,,,IC50,2 µM
CNC(=O)[C@@H](NC(=O)[C@H](CC(C)C)[C@H](O)C(=O)NO)C(C)(C)C,C2C12,,,"1 µM, with: KA venom",relative to: venom alone,viability difference,12.7%
CC[C@H](C)[C@H](NC(=O)[C@H](CC(C)C)NC(=O)[C@H](Cc1c[nH]c2ccccc12)NC(=O)[C@H](CCC(N)=O)NC(=O)[C@@H](NC(=O)[C@H](Cc1ccccc1)NC(=O)[C@H](C)NC(=O)[C@H](CCCCNC(=O)COCCOCCNC(=O)COCCOCCNC(=O)CC[C@H](NC(=O)CCCCCCCCCCCCCCCCCCC(=O)O)C(=O)O)NC(=O)[C@H](CCC(N)=O)NC(=O)[C@H](C)NC(=O)[C@@H](NC(=O)[C@H](CCCCN)NC(=O)[C@H](CC(=O)O)NC(=O)[C@H](CC(C)C)NC(=O)C(C)(C)NC(=O)[C@@H](NC(=O)[C@H](CO)NC(=O)[C@H](Cc1ccc(O)cc1)NC(=O)[C@H](CC(=O)O)NC(=O)[C@H](CO)NC(=O)[C@@H](NC(=O)[C@H](Cc1ccccc1)NC(=O)[C@@H](NC(=O)CNC(=O)[C@H](CCC(=O)O)NC(=O)C(C)(C)NC(=O)[C@@H](N)Cc1ccc(O)cc1)[C@@H](C)O)[C@@H](C)O)[C@@H](C)CC)[C@@H](C)CC)C(C)C)C(=O)N[C@@H](C)C(=O)NCC(=O)NCC(=O)N1CCC[C@H]1C(=O)N[C@@H](CO)C(=O)N[C@@H](CO)C(=O)NCC(=O)N[C@@H](C)C(=O)N1CCC[C@H]1C(=O)N1CCC[C@H]1C(=O)N1CCC[C@H]1C(=O)N[C@@H](CO)C(N)=O,,,healthy subjects,"0.5 mg, multiple ascending dose",,severe hypoglycaemia,0%
Nc1ncnc2c([C@@H]3N[C@H](CO)[C@@H](O)[C@H]3O)c[nH]c12,Marburg marburgvirus,viral RNA in supernatant,"HeLa, Musoke","0.8 µM, 24 h",,inhibition,0%
Cn1cnc(Cn2c(=O)[nH]/c(=N\c3cc4cn(C)nc4cc3Cl)n(Cc3cc(F)c(F)cc3F)c2=O)n1,,,"human, moderate renal impairment","oral, 375 mg",,"dry mouth TEAE, Moderate severity",0%
C[C@H](Cn1cnc2c(N)ncnc21)OCP(=O)(O)O,gag-pol K652R reverse transcriptase,inhibitor,HIV-1,,,IC50,2.531 ± 0.00116 µM
O=C(O)c1ccc(-c2cccc(/C=N/NC(=O)c3cc(O)c(O)c(O)c3)c2)cc1,gag-pol I1092V reverse transcriptase I505V,"RNase H activity, inhibitor",HIV-1,,,IC50,0.3 ± 0.3 µM
O=P(O)(O)C(O)(Cc1cccc(-c2cc(F)ccc2F)c1)P(=O)(O)O,gag-pol D654N/K657R/K806Q/T802F reverse transcriptase,,,,,IC50,1.58 µM
O=C(O)c1ccc(-c2cccc(/C=N/NC(=O)c3ccc(O)c(O)c3)c2)cc1,"Gag-Pol polyprotein, reverse transcriptase A502G (gag-pol, Human immunodeficiency virus type 1 group M subtype B, UniProt P04585, A1089G)","RNase H activity, inhibitor",HIV-1,,,IC50,4.2 ± 1.1 µM
Cc1cn([C@H]2C=C[C@@H](COP(=O)(O)OP(=O)(O)OP(=O)(O)O)O2)c(=O)[nH]c1=O,"Gag-Pol polyprotein, reverse transcriptase (gag-pol, Human immunodeficiency virus type 1 group M subtype B, UniProt P04585, K653N)",inhibitor,HIV-1,,,IC50,8.64 ± 1.23 µM
CN1CCc2cc(O)cc3c2[C@H]1Cc1ccc(O)c(O)c1-3,gag-pol integrase,"enzyme activity, inhibitor",,,,IC50,> 25 µM
